# Measured values pooled from the literature.
# A part holds a random share of what one study measured.
# Chain of UniProt Q15835 (whole entry, looked up): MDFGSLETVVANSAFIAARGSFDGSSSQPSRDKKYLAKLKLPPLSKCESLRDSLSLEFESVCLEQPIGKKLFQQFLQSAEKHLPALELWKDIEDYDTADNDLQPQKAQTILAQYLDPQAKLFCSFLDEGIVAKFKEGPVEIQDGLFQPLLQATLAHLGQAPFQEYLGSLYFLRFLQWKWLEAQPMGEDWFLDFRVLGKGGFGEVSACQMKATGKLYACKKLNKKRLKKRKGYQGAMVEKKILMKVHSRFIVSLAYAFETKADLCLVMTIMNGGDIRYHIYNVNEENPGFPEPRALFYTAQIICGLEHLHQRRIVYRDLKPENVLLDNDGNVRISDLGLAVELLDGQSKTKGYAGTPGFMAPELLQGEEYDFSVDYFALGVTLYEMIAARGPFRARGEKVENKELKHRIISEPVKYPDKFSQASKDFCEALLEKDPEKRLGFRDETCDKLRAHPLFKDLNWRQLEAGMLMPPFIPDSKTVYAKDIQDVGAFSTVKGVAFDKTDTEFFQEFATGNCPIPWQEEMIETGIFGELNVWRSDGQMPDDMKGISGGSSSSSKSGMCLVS
# Chain of UniProt Q9Y6M4 (whole entry, looked up): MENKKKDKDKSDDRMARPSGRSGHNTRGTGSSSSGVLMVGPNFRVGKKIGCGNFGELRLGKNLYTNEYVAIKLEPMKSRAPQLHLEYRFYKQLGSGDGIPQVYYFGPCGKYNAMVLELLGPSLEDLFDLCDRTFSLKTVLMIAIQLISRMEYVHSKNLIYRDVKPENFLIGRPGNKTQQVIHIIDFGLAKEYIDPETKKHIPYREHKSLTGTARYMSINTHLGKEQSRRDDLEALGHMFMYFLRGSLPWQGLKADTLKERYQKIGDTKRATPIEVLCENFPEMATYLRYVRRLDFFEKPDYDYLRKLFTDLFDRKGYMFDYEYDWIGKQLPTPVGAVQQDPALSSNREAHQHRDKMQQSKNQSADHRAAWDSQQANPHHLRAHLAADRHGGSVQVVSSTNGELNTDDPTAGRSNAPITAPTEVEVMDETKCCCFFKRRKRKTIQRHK
# Chain of UniProt Q8IVW4 (whole entry, looked up): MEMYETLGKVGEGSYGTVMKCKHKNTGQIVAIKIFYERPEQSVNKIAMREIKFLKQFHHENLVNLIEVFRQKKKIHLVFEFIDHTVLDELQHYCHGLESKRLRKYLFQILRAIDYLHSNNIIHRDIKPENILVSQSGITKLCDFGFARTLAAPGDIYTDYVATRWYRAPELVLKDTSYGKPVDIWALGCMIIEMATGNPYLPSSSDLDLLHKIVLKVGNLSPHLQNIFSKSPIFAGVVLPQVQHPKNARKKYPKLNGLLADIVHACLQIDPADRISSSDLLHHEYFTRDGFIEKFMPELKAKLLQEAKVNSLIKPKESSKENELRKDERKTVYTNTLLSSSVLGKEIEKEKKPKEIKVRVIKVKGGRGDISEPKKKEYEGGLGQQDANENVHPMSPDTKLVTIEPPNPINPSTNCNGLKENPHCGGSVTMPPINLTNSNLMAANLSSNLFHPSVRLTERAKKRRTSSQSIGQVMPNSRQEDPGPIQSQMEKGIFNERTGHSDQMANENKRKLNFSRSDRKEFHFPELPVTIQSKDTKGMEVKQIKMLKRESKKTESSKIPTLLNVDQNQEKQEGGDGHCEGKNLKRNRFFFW
# Chain of UniProt Q04759 (whole entry, looked up): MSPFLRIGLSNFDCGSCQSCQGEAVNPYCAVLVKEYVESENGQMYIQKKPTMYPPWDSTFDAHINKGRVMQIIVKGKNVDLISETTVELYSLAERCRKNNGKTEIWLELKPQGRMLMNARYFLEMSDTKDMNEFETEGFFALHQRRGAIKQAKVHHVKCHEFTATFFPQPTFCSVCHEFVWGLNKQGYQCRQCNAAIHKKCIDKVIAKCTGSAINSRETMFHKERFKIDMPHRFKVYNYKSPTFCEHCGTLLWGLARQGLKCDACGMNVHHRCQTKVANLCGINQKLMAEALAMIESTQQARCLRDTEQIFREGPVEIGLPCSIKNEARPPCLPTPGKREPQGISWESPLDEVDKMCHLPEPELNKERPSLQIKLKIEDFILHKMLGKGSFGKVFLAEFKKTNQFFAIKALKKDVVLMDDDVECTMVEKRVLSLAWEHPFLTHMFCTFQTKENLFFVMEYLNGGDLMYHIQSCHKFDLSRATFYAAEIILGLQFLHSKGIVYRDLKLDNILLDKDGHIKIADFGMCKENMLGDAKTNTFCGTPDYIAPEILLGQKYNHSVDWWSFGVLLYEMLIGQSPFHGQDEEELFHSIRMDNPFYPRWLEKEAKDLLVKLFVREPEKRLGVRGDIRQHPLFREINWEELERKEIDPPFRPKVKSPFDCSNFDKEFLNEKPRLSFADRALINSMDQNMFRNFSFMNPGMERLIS
# Chain of UniProt Q15569 (whole entry, looked up): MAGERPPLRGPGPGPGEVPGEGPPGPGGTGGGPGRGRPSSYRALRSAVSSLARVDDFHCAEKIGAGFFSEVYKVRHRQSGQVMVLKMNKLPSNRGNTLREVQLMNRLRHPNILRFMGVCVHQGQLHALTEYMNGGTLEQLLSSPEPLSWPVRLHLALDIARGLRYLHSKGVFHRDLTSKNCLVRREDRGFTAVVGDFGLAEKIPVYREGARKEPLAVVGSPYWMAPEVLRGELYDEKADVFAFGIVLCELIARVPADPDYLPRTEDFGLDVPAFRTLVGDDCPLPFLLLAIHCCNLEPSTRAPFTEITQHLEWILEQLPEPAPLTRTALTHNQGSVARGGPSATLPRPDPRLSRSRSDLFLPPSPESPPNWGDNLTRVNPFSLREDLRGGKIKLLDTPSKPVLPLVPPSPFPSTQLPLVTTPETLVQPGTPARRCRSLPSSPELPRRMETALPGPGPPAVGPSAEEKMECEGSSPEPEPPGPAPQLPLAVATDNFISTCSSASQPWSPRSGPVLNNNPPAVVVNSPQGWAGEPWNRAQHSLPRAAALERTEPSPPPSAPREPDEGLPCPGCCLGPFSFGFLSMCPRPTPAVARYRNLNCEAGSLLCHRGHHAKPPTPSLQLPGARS
# Chain of UniProt O14920 (whole entry, looked up): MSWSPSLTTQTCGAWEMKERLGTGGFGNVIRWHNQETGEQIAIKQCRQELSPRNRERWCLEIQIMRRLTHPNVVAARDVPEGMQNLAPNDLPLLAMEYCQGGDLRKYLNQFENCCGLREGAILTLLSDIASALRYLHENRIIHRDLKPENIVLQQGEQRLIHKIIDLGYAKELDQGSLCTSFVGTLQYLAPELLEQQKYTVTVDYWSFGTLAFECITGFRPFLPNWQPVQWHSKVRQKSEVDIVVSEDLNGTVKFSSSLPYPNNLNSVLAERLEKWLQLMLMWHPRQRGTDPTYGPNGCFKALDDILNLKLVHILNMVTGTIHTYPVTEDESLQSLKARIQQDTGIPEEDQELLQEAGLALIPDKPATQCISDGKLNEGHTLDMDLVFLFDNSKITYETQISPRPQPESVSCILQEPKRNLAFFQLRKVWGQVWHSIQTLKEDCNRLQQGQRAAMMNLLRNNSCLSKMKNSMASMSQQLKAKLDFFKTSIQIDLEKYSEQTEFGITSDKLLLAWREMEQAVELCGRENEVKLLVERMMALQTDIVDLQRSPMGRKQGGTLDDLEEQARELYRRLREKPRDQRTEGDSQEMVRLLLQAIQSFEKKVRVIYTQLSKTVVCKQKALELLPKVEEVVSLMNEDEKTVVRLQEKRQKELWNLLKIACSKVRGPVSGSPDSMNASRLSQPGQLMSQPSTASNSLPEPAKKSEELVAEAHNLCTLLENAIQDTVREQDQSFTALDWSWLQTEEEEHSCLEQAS

# Study 1
# Target: Ras GTPase-activating protein-binding protein 1, RRM domain (G3BP1, Homo sapiens, UniProt Q13283)
# Chain of UniProt Q13283 (whole entry, looked up): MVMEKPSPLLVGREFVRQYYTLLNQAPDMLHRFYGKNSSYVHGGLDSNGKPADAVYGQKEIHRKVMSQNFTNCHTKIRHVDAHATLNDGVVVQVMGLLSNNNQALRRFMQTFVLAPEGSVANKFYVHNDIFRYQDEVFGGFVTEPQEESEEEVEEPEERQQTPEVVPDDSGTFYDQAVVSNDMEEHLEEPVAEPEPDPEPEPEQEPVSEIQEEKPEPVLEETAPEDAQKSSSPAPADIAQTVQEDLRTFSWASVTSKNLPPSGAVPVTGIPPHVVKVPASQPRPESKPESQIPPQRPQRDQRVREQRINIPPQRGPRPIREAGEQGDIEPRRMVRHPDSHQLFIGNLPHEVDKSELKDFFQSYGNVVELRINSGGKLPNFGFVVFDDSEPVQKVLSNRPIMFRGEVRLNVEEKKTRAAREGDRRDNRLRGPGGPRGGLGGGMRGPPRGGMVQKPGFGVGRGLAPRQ
# Method: RNA Bind-n-Seq
# Molecule type: RNA
# Medium: in vitro
# Concentration: 1 µM
# Notes: whole 134-nt RNA, ends assumed
# Added: 150 mM KCl
# Relative to: input library
# Direction: higher = stronger binding
# Constant ends, left off below: GGGAGUUCUACAGUCCGACGAUC … UGGAAUUCUCGGGUGUCAAGG
Sequence,log2 enrichment
CAAGUCCUGUGCUACACAUCGUAUGUACCGAAUCGGGCCCGGCCCGGGGCCCGGGAAAGUAUUAUGUUACGCCGUUCGGAUCUGCACUUC,-0.751
UCCUCAAGUCCUGUGCUACACAUCGUAUGUACCGAAUCGGGGAGGGAGGAGGAAAGUAUUAUGUUACGCCGUUCGGAUCUGCACUUCCAG,-0.196
UCCUCAAGUCCUGUGCUACACAUCGUAUGUACCGAAUCGGUGGUGGUUUGGAAAGUAUUAUGUUACGCCGUUCGGAUCUGCACUUCCAGC,-0.224
GACAGACAACACGCACCCACACAGACACAGAGGGAAGGGGUUGGGAUGGGGACAGGGUGCACAGCAGGGCGGGGUAGGACCCCAGCCCCU,-0.00398
GUGCUACACAUCGUAUGUACCGAAUCGGGGAAAAAAAGGGGAAAAAAAGGGGAAAAAAAGGGGAAAGUAUUAUGUUACGCCGUUCGGAUC,1.16
UCCUGUGCUACACAUCGUAUGUACCGAAUCAAAUUUUUAAAUUUUUAAACCCCCCCAAAAAAGUAUUAUGUUACGCCGUUCGGAUCUGCA,-0.929
AGUCCUGUGCUACACAUCGUAUGUACCGAAUCGGGUUUGGGUUUUUUUGGGAAAGGGAAAGUAUUAUGUUACGCCGUUCGGAUCUGCACU,0.71
UAACUUUAGAGGAGGAUCUGAUGGAUAUGGCAGUGGACGUGGAUUUGGGGAUGGCUAUAAUGGGUAUGUAGGAGGACCUGGAGGUGGCAA,-0.403

# Study 2
# SMILES: CNC(=O)Nc1ccc2c(c1)[C@@]1(CC2)OC(=O)N(CC(=O)N(Cc2ccc(F)cc2)[C@@H](C)C(F)(F)F)C1=O
# Read-out: cell-free assay
# Method: competition with immobilised ligand
# Concentration: 1 µM
target,remaining binding [%]
"Protein kinase C theta type (PRKCQ, Homo sapiens, UniProt Q04759)",89
"Dual specificity testis-specific protein kinase 1 (TESK1, Homo sapiens, UniProt Q15569)",100
"Rhodopsin kinase GRK1 (GRK1, Homo sapiens, UniProt Q15835)",73
"Inhibitor of nuclear factor kappa-B kinase subunit beta (IKBKB, Homo sapiens, UniProt O14920)",92
"Transient receptor potential cation channel subfamily M member 6 (TRPM6, Homo sapiens, UniProt Q9BX84)",98
"Casein kinase I isoform gamma-3 (CSNK1G3, Homo sapiens, UniProt Q9Y6M4)",89
"Cyclin-dependent kinase-like 3 (CDKL3, Homo sapiens, UniProt Q8IVW4)",92
"Tyrosine-protein kinase ZAP-70 (ZAP70, Homo sapiens, UniProt P43403)",100

# Study 3
# Target: Serine/threonine-protein kinase Sgk1 (SGK1, Homo sapiens, UniProt O00141)
# Chain of UniProt O00141 (whole entry, looked up): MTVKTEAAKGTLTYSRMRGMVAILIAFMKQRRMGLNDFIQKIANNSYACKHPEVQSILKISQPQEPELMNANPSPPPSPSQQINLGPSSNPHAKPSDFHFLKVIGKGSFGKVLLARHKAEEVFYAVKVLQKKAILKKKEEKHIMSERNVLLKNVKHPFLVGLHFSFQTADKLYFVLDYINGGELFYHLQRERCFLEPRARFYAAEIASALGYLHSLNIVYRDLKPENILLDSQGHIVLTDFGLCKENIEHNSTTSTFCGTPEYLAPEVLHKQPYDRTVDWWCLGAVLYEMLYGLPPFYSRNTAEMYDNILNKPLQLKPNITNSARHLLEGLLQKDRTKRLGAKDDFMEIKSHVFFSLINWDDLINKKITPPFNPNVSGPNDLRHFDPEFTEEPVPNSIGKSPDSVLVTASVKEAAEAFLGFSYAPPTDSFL
# Read-out: enzyme activity
# Mode: inhibitor
# Concentration: 0.5 µM
# Relative to: control
SMILES,remaining activity [%]
O=C(O)c1ccc2c3c1cccc3c(=O)n1c3ccccc3nc21,102
CN(C)c1ccc(C=C2C(=O)Nc3ccccc32)cc1,93.1
N#CC(C#N)=C(N)/C(C#N)=C/c1ccc(O)cc1,96.1
COc1cc2ncnc(Nc3ccc(F)c(Cl)c3)c2cc1OCCCN1CCOCC1,131
Cc1ccc(Nc2nccc(N(C)c3ccc4c(C)n(C)nc4c3)n2)cc1S(N)(=O)=O,125
COc1ccc(CNC(=O)Nc2ncc([N+](=O)[O-])s2)cc1,105
CO[C@H]1C[C@@H]2CC[C@@H](C)[C@@](O)(O2)C(=O)C(=O)N2CCCC[C@H]2C(=O)O[C@H]([C@H](C)C[C@@H]2CC[C@@H](O)[C@H](OC)C2)CC(=O)[C@H](C)/C=C(\C)[C@@H](O)[C@@H](OC)C(=O)[C@H](C)C[C@H](C)/C=C/C=C/C=C/1C,101
Cn1c2ccccc2c2c3c(c4c5ccccc5n(CCC#N)c4c21)CNC3=O,79.1
Cc1nc(-c2ccccc2)c(-c2ccncc2)o1,99.3
CNC(=O)c1cc(Oc2ccc(NC(=O)Nc3ccc(Cl)c(C(F)(F)F)c3)cc2)ccn1,95.2
COc1cc2nccc(Oc3ccc(NC(=S)NC(=O)c4ccccc4C)cc3)c2cc1OC,101
Cn1sc(=O)n(Cc2ccccc2)c1=O,94
O=C1NC(=O)C(c2cn(CCCn3ccnc3)c3ccccc23)=C1Nc1ccccc1,74.9
COc1ccc(C(=O)Nc2sc3c(c2C(N)=O)CCCC3)cc1OC,98.7
O=C1NC(=O)C(c2cn(CCCO)c3ncccc23)=C1c1cnccn1,91.2

# Further values, each from its own experiment
Substance,partner,method,medium,added,measurement,result
"NUP155 (Homo sapiens, UniProt O75694)","NUP205 (Homo sapiens, UniProt Q92621)",cross-linking MS,cell fractions,DSSO,cross-linked residues,K1069 to K1219

# Repeated from above (study 3):
SMILES,remaining activity [%]
Cn1c2ccccc2c2c3c(c4c5ccccc5n(CCC#N)c4c21)CNC3=O,79.1
Cn1sc(=O)n(Cc2ccccc2)c1=O,94
CNC(=O)c1cc(Oc2ccc(NC(=O)Nc3ccc(Cl)c(C(F)(F)F)c3)cc2)ccn1,95.2
